# Published values collected from several papers.
# Each numbered part is a random draw from the data of one study; scales do not carry over between parts.
# Chain of UniProt P06241 (whole entry, looked up): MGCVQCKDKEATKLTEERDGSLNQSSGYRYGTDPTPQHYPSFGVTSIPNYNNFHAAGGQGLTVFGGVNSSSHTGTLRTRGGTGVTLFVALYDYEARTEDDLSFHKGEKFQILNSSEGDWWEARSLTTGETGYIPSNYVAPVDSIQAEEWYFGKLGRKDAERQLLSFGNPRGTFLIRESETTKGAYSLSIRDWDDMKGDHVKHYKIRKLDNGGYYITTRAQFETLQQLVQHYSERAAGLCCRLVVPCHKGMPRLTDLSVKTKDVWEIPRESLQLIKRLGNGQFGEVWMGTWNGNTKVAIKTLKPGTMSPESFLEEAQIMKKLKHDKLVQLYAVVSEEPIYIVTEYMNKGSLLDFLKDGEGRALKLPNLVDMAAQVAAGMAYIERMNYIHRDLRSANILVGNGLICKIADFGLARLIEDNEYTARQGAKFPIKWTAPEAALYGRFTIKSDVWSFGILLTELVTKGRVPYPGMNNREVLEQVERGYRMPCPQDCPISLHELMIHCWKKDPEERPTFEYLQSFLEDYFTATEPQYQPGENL
# Chain of UniProt P42679 (whole entry, looked up): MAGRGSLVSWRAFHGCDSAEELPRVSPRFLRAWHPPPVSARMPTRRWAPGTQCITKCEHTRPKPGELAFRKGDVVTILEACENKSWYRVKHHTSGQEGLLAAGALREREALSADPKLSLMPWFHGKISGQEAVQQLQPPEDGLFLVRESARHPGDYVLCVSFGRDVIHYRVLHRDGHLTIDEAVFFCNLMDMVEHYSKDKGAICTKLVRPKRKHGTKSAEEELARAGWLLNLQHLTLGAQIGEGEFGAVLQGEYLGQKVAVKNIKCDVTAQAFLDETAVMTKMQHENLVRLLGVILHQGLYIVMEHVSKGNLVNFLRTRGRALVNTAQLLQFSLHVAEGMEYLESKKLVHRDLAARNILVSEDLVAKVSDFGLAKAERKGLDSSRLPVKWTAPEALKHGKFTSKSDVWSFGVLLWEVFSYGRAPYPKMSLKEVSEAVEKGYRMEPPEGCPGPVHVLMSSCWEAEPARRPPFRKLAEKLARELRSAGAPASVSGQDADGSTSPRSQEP
# Chain of UniProt Q8TDX7 (whole entry, looked up): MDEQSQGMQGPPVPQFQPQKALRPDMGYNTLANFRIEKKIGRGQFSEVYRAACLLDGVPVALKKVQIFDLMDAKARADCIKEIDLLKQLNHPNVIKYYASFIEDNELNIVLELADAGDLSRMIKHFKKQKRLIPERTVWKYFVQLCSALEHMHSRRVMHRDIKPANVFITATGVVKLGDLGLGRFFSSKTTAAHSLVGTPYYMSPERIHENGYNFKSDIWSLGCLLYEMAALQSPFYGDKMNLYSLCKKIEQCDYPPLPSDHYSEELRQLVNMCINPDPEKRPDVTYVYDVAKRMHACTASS
# Chain of UniProt Q9UBE8 (whole entry, looked up): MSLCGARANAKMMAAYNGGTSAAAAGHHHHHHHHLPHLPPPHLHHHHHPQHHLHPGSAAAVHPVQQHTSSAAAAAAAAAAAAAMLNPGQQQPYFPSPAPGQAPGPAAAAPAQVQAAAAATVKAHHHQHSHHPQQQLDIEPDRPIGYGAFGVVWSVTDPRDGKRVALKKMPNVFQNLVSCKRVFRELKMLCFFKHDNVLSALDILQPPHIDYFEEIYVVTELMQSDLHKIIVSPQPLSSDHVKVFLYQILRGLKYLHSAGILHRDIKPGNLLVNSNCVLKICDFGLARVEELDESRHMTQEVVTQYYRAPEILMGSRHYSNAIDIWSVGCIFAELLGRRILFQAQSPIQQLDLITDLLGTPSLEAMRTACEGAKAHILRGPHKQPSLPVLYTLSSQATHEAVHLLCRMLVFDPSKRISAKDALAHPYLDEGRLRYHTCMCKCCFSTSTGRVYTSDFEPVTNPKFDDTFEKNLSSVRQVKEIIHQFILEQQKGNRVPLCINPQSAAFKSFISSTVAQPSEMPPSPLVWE
# Chain of UniProt P31749 (whole entry, looked up): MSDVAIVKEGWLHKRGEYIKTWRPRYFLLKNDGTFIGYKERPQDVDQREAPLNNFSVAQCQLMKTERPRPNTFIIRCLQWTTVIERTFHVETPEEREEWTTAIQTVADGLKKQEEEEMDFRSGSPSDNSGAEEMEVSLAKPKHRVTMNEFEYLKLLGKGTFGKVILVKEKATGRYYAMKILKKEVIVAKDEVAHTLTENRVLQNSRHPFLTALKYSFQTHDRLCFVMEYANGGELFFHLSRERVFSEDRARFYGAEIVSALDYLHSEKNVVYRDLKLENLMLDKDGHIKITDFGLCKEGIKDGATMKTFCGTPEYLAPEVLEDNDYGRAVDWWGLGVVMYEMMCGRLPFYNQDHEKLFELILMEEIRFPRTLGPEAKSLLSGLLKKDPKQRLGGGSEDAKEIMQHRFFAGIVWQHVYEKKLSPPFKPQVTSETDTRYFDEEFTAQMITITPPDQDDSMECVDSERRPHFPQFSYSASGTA
# Chain of UniProt P42336 (whole entry, unmodified, looked up): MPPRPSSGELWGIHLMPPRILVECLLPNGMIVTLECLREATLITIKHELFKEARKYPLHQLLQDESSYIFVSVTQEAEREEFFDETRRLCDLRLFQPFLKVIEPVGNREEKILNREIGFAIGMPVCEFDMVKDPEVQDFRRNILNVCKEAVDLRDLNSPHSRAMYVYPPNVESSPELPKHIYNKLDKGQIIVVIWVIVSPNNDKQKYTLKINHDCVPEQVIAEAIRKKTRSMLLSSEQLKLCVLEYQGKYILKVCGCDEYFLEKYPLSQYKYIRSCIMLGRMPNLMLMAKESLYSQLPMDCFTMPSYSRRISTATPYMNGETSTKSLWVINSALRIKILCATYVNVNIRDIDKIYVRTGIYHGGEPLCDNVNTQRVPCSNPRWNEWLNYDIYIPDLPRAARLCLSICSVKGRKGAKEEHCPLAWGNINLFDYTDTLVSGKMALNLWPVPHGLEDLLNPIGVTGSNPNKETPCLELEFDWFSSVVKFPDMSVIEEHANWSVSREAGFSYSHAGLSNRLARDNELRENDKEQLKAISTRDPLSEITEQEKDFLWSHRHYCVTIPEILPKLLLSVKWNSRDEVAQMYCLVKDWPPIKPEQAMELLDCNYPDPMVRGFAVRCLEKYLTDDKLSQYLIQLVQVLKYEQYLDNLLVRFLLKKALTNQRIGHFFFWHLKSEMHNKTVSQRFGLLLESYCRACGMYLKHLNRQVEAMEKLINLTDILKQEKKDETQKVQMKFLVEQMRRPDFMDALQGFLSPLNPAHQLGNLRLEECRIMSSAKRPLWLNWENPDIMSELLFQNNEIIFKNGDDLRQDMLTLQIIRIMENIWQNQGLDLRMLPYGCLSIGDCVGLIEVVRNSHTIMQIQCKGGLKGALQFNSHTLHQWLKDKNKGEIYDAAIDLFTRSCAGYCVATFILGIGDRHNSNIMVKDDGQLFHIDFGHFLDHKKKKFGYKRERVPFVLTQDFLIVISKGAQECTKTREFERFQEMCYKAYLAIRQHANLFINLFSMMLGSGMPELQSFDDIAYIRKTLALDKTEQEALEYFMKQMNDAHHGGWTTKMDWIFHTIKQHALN

# Sample 1
# Host: mouse
# Matrix: microsomes or S9
# Concentration: 2 µM
# Time: 0.5 h
SMILES,remaining compound [%]
Cc1cc(-c2cc(O)cc(CCC3CCCCN3)c2)ccn1 (centres unmarked),21.6
O=C(Nc1nc2ncc(Br)nc2s1)c1ccc(Cl)cc1,52.4
Cc1c(C(=O)N2c3ccccc3CC2C)sc2nc(-c3ccccc3)cn12 (centres unmarked),3.14
CC(O)c1ccc(N2CCN(CCCNC(=O)c3cc4ccccc4s3)CC2)cc1 (centres unmarked),53.3
CC(=O)N1CCOc2cc(S(=O)(=O)N3CSC[C@@H]3C(=O)NCc3csc(C)n3)c(C)cc21,2.92
CCc1n[nH]c(=O)c(-c2nc(C3CCCC3)cs2)c1CC,1.78
CCS(=O)(=O)Nc1ccc(-n2nc(C)c(-c3ccc(Cl)cc3)cc2=O)cc1,39.9

# Sample 2
# SMILES: C[C@H](c1cccc(C#N)c1)n1cc(Cl)cc(C(N)=O)c1=N
# Concentration: 1 µM
target,effect on,method,remaining binding
"Ribosomal protein S6 kinase alpha-4, N-terminal kinase domain (RPS6KA4, Homo sapiens, UniProt O75676)",cell-free assay,competition with immobilised ligand,100%
"FYN (Homo sapiens, UniProt P06241)",cell-free assay,competition with immobilised ligand,42%
"CIT (Homo sapiens, UniProt O14578)",cell-free assay,competition with immobilised ligand,96%
"PIK3CA (Homo sapiens, UniProt P42336, C420R)",cell-free assay,competition with immobilised ligand,100%
"TGFBR2 (Homo sapiens, UniProt P37173)",cell-free assay,competition with immobilised ligand,100%
"CAMK1 (Homo sapiens, UniProt Q14012)",cell-free assay,competition with immobilised ligand,100%
"SRC (Homo sapiens, UniProt P12931)",cell-free assay,competition with immobilised ligand,88%
"PNCK (Homo sapiens, UniProt Q6P2M8)",cell-free assay,competition with immobilised ligand,89%
"NEK7 (Homo sapiens, UniProt Q8TDX7)",cell-free assay,competition with immobilised ligand,97%
"NTRK1 (Homo sapiens, UniProt P04629)",cell-free assay,competition with immobilised ligand,100%
"MAPK9 (Homo sapiens, UniProt P45984)",cell-free assay,competition with immobilised ligand,96%
"GAK (Homo sapiens, UniProt O14976)",cell-free assay,competition with immobilised ligand,100%
"FLT3 (Homo sapiens, UniProt P36888, F691L/ITD)",cell-free assay,competition with immobilised ligand,82%
"TNNI3K (Homo sapiens, UniProt Q59H18)",cell-free assay,competition with immobilised ligand,92%
"DDR1 (Homo sapiens, UniProt Q08345)",cell-free assay,competition with immobilised ligand,98%
"AAK1 (Homo sapiens, UniProt Q2M2I8)",binding,,100%
"EPHA2 (Homo sapiens, UniProt P29317)",cell-free assay,competition with immobilised ligand,89%

# Sample 3
# SMILES: Cc1cc(Nc2cc(N3CCN(C)CC3)nc(Sc3ccc(NC(=O)C4CC4)cc3)n2)[nH]n1
# Effect on: enzyme activity
# Action: inhibitor
# Concentration: 0.5 µM
# Reference: control
target,remaining activity [%]
"PRKX (Homo sapiens, UniProt P51817)",137
"NLK (Homo sapiens, UniProt Q9UBE8)",103
"CDC42BPA (Homo sapiens, UniProt Q5VT25)",75.3
"PASK (Homo sapiens, UniProt Q96RG2)",99.2
"STK25 (Homo sapiens, UniProt O00506)",94.8
"ALK (Homo sapiens, UniProt Q9UM73)",91.5
"SRC (Homo sapiens, UniProt P12931)",26.7
"Cyclin-dependent kinase 3, with cyclin E (CDK3, Homo sapiens, UniProt Q00526)",95.3
"HIPK1 (Homo sapiens, UniProt Q86Z02)",98.6
"PKN1 (Homo sapiens, UniProt Q16512)",82.6
"MARK3 (Homo sapiens, UniProt P27448)",96.9
"FER (Homo sapiens, UniProt P16591)",92.2
"AKT1 (Homo sapiens, UniProt P31749)",99.2
"LIM domain kinase 1 (LIMK1, Homo sapiens, UniProt P53667)",33.1
"FGR (Homo sapiens, UniProt P09769)",58.2
"FYN (Homo sapiens, UniProt P06241)",72.2
"NEK11 (Homo sapiens, UniProt Q8NG66)",82.8
"ITK (Homo sapiens, UniProt Q08881)",98.7
"FLT4 (Homo sapiens, UniProt P35916)",55.4
"MATK (Homo sapiens, UniProt P42679)",78.7
"TAOK3 (Homo sapiens, UniProt Q9H2K8)",76.3

# Sample 4
# Structure (SMILES): CC(C)n1cnc(-c2ccc(F)cc2)c1-c1ncc(C(=O)Nc2ccc(N3CCN(C)CC3)cc2)[nH]1
method,measured,host,route,dose,notes,patients with TEAE
phase 2a trial,,idiopathic pulmonary fibrosis patients,oral,60 mg once daily,"GLDH increased, grade 1",0%
phase 2a trial,,patients with idiopathic pulmonary fibrosis,,30 mg once daily,"nervous system disorders SOC, grade 1",0%
phase 2a trial,,patients with idiopathic pulmonary fibrosis,,60 mg once daily,"skin papilloma, maximum intensity grade 4",0%
phase 2a trial,,patients with idiopathic pulmonary fibrosis,,30 mg once daily,"renal and urinary disorders SOC, grade 2",0%
phase 2a trial,,patients with idiopathic pulmonary fibrosis,,30 mg once daily,"endocrine disorders SOC, grade 2",0%
phase 2a trial,,patients with idiopathic pulmonary fibrosis,,60 mg once daily,"free thyroxine decreased, grade 3",0%
phase 2a trial,,idiopathic pulmonary fibrosis patients,oral,30 mg once daily,"ESR increased, grade 4",0%
phase 2a trial,,patients with idiopathic pulmonary fibrosis,,dose not given,"nervous system disorders SOC, grade 4, all arms",0%
phase 2a trial,,idiopathic pulmonary fibrosis patients,oral,60 mg once daily,"CK-MB increased, grade 5",0%
,intervertebral disc protrusion,idiopathic pulmonary fibrosis patients,,30 mg once daily,,0%
phase 2a trial,,patients with idiopathic pulmonary fibrosis,,dose not given,"renal and urinary disorders SOC, grade 2, all arms",0%
phase 2a trial,,patients with idiopathic pulmonary fibrosis,,60 mg once daily,"eye swelling, grade 1",0%
phase 2a trial,,idiopathic pulmonary fibrosis patients,oral,60 mg once daily,"blood/lymphatic disorders, grade 3",0%
phase 2a trial,,idiopathic pulmonary fibrosis patients,oral,30 mg once daily,"musculoskeletal disorders, grade 1",0%

# For quick reference, copied from above (sample 3):
target,remaining activity [%]
"SRC (Homo sapiens, UniProt P12931)",26.7
"STK25 (Homo sapiens, UniProt O00506)",94.8
"MATK (Homo sapiens, UniProt P42679)",78.7
"FLT4 (Homo sapiens, UniProt P35916)",55.4
"LIM domain kinase 1 (LIMK1, Homo sapiens, UniProt P53667)",33.1
"FER (Homo sapiens, UniProt P16591)",92.2
"CDC42BPA (Homo sapiens, UniProt Q5VT25)",75.3
"FYN (Homo sapiens, UniProt P06241)",72.2
"AKT1 (Homo sapiens, UniProt P31749)",99.2
